Published values collected from several papers.
A part holds a random share of what one study measured. Changes are numbered by the printed parent chain. ± gives the spread as reported.

Block 1
Partner: ORF66
Method: pull-down
Cell line: 293T
Relative to: wild-type ORF34
Direction: higher = more prey pulled down
Molecule	relative binding
ORF34 D154A (Kaposi's sarcoma-associated herpesvirus)	0.28
ORF34 V50A (Kaposi's sarcoma-associated herpesvirus)	1.11
ORF34 F47A (Kaposi's sarcoma-associated herpesvirus)	1.09
ORF34 C170A (Kaposi's sarcoma-associated herpesvirus)	0.05
ORF34 R234A (Kaposi's sarcoma-associated herpesvirus)	0.77

Mixed results
BFA1: BFA1 (Saccharomyces cerevisiae)
B1: enzyme Y161A (Streptomyces parvus, UniProt A0A7K3RVR3); chain MYVPEQYRPRDASWTLELIRSNPLALLVTNGPQHPWATHVPVLFAEEPDGPEGPDGLDATGDDLVGRRLLGHLNLMNPHWEALAGAGHALLVFQGPGSYVSPTVYETAPAAPTWDFTSVHVHGALRLIDDPDDLRKIVQATVRAYEREVGTDWDMSESLEAFERLLPGVRGFEIKIESVDSMFKLSQEQLPETVTKVIDSFRRSDGGRRQELATMIERAASD
P1: yEGFP-Tem1 (Saccharomyces cerevisiae); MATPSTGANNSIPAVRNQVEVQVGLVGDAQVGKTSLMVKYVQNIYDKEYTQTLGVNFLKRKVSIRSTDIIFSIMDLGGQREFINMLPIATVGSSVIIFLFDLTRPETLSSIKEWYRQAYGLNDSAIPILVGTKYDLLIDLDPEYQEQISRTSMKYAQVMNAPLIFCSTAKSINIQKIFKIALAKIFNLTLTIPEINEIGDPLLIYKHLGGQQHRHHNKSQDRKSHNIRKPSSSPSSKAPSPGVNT; partner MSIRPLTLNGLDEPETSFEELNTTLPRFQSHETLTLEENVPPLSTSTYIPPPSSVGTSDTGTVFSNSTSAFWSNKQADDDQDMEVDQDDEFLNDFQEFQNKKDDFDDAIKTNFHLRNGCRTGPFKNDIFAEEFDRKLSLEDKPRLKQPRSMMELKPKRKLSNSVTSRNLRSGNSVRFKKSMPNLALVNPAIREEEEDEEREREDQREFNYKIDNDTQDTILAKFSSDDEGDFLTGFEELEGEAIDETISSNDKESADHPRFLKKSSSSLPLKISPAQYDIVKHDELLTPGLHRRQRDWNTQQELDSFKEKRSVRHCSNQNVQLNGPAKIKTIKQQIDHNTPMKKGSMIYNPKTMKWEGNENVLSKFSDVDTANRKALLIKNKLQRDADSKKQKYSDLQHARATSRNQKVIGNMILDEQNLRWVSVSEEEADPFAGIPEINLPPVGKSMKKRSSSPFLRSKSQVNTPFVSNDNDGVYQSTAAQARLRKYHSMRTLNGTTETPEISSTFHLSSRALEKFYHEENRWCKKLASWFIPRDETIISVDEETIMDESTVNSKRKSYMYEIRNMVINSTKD
B2: enzyme Y7A (Streptomyces parvus, UniProt A0A7K3RVR3); chain MYVPEQARPRDASWTLELIRSNPLALLVTNGPQHPWATHVPVLFAEEPDGPEGPDGLDATGDDLVGRRLLGHLNLMNPHWEALAGAGHALLVFQGPGSYVSPTVYETAPAAPTWDFTSVHVHGALRLIDDPDDLRKIVQATVRAYEREVGTDWDMSESLEYFERLLPGVRGFEIKIESVDSMFKLSQEQLPETVTKVIDSFRRSDGGRRQELATMIERAASD
B3: USP7 catalytic domain 207-560 (Homo sapiens, UniProt Q93009); chain SKKHTGYVGLKNQGATCYMNSLLQTLFFTNQLRKAVYMMPTEGDDSSKSVPLALQRVFYELQHSDKPVGTKKLTKSFGWETLDSFMQHDVQELCRVLLDNVENKMKGTCVEGTIPKLFRGKMVSYIQCKEVDYRSDRREDYYDIQLSIKGKKNIFESFVDYVAVEQLDGDNKYDAGEHGLQEAEKGVKFLTLPPVLHLQLMRFMYDPQTDQNIKINDRFEFPEQLPLDEFLQKTDPKDPANYILHAVLVHSGDNHGGHYVVYLNPKGDGKWCKFDDDVVSRCTKEEAIEHNYGGHDDDLSVRHCTNAYMLVYIRESKLSEVLQAVTDHDIPQQLVERLQEEKRIEAQKRKERQE
Molecule	target or system	test	test system	setting	scale	endpoint	result
B1 (enzyme Y161A)	N[C@@H](CCCNO)C(=O)O	steady-state kinetics	–	pH 8, 25 °C, with: heme	–	kcat	0.17 s⁻¹
P1 T52A	BFA1	co-IP	yeast	in cells	relative to: wild-type protein, higher = more binding	relative binding	0.02
B2 (enzyme Y7A)	N[C@@H](CCCNO)C(=O)O	steady-state kinetics	–	pH 8, 25 °C, with: heme	–	kcat	0.193 s⁻¹
B3 (USP7 catalytic domain 207-560)	ubiquitin (UniProt P0CG48)	NMR	–	read off a plot	–	Kd	160 µM
P1 Q79L	BFA1	co-IP	yeast	in cells	relative to: wild-type protein, higher = more binding	relative binding	1.6
AAUUUUUUAGGGAAGAUCUGGCCUUCCUACAAGGGAAGGCCAGGGAAUUUUCUUC (ssRNA (HIV-1); stem-loop)	SHFL 1-291 S249A (Homo sapiens, UniProt Q9NUL5)	ITC	folded RNA	–	–	Kd	0.979 ± 0.171 µM

Repeated from above (mixed results):
Molecule	target or system	test	test system	setting	scale	endpoint	result
P1 T52A	BFA1	co-IP	yeast	in cells	relative to: wild-type protein, higher = more binding	relative binding	0.02
